{"data": "Assay results of several laboratories", "SRC": "Proto-oncogene tyrosine-protein kinase Src (SRC, Gallus gallus, UniProt P00523)", "tmk": "Thymidylate kinase (tmk, Mycobacterium tuberculosis, UniProt P9WKE1)", "CNR1": "Cannabinoid receptor 1 (CNR1, Homo sapiens, UniProt P21554)", "note": "Numbers after ± are the reported error.", "sequence of UniProt P9WKE1 (whole entry, looked up)": "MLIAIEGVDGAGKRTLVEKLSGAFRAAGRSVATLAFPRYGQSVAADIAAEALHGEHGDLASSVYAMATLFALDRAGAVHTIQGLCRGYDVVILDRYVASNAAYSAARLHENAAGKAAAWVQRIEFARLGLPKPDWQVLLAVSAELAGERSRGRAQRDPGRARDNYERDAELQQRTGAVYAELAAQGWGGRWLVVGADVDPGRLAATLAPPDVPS", "sequence of UniProt P21554 (whole entry, unmodified, looked up)": "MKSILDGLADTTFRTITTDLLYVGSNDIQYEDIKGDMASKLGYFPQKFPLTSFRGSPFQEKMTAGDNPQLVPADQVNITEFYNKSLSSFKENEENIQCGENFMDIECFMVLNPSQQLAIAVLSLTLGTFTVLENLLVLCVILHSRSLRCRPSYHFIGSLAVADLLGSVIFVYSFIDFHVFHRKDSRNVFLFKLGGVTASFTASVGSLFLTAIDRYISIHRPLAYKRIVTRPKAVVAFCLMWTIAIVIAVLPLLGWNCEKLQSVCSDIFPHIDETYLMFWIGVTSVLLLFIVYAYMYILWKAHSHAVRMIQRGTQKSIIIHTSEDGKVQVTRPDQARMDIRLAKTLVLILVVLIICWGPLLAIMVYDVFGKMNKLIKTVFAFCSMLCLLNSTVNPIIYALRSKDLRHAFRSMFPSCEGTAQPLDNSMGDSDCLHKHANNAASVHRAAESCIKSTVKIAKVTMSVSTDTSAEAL", "sequence of UniProt P34972 (whole entry, looked up)": "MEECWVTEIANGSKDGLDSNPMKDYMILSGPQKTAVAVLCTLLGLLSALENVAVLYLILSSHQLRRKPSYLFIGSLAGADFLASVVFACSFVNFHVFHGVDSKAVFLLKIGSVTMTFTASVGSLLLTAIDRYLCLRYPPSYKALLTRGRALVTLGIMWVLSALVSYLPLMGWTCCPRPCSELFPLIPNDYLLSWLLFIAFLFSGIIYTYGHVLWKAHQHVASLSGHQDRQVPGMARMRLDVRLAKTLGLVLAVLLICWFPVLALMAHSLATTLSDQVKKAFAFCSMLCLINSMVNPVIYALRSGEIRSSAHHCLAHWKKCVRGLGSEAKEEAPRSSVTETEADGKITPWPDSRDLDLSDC", "sequence of UniProt Q7KZI7 (whole entry, looked up)": "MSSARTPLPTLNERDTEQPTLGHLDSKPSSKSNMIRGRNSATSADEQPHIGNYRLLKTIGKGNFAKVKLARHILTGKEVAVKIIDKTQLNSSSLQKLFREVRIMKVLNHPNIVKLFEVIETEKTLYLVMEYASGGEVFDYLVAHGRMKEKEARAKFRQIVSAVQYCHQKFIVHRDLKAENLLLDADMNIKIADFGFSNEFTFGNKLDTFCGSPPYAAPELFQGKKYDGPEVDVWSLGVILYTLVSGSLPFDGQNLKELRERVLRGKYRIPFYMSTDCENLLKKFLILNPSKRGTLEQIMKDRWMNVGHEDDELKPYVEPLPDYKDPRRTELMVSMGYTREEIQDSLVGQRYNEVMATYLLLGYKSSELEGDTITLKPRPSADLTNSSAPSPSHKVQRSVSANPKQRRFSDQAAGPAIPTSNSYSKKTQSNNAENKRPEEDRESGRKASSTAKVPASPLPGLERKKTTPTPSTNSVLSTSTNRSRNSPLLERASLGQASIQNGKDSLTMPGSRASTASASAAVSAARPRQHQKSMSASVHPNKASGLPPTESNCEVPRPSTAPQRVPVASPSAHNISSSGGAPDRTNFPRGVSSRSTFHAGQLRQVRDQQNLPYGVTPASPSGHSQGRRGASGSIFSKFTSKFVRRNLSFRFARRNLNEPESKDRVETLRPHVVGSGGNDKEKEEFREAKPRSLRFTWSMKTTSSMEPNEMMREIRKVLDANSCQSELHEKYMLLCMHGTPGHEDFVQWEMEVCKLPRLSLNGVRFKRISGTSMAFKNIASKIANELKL", "sequence of UniProt Q9DB29 (whole entry, looked up)": "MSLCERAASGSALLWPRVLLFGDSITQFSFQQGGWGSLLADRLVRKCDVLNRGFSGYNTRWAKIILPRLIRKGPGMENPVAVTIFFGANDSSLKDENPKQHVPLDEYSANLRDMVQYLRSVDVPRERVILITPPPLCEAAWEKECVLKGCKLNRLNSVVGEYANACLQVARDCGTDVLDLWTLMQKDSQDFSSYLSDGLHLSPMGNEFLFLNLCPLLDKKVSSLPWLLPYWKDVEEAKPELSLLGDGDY", "sequence of UniProt Q5VT25 (whole entry, looked up)": "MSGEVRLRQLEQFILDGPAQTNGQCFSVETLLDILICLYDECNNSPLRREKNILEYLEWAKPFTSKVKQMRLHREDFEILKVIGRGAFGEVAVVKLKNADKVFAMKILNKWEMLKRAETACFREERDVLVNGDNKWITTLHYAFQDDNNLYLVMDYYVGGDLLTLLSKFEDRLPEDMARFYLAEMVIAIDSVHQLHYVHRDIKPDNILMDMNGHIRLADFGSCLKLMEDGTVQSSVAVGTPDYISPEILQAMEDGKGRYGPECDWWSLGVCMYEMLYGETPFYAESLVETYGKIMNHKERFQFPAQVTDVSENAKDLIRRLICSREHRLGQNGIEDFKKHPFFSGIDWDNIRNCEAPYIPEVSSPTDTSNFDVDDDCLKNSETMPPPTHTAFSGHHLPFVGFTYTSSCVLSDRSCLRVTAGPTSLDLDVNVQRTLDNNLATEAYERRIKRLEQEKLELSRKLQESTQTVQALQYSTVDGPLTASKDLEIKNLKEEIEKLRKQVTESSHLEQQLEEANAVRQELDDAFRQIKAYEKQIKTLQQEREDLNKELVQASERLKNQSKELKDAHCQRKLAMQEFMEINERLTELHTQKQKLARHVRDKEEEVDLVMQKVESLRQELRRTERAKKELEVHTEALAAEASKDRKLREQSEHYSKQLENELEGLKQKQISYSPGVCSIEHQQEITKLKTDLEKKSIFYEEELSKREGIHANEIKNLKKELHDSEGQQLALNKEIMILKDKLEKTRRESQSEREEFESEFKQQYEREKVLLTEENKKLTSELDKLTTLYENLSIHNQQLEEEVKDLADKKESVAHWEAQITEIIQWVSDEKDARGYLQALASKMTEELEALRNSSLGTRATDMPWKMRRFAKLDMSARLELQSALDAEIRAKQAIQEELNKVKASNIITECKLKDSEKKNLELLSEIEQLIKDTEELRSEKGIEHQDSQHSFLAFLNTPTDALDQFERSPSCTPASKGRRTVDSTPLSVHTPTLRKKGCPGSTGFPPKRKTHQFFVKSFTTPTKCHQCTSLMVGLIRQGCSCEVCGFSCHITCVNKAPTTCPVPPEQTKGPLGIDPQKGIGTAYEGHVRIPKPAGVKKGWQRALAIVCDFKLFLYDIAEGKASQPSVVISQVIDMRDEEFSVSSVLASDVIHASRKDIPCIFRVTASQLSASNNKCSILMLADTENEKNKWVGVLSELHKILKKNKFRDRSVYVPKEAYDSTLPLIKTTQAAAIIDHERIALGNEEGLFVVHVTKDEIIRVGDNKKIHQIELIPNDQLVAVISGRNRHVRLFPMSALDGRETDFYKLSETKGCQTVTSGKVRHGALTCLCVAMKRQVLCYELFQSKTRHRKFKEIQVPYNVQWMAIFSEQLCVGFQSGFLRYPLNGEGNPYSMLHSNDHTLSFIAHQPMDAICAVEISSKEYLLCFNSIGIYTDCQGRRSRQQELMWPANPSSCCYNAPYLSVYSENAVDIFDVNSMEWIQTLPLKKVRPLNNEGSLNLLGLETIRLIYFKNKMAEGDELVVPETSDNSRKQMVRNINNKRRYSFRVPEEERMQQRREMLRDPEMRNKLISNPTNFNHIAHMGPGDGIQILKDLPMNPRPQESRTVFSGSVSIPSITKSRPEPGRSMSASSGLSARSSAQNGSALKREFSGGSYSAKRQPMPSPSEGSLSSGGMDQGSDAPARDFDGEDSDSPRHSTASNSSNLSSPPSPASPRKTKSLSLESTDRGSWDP", "sequence of UniProt Q14790 (whole entry, looked up)": "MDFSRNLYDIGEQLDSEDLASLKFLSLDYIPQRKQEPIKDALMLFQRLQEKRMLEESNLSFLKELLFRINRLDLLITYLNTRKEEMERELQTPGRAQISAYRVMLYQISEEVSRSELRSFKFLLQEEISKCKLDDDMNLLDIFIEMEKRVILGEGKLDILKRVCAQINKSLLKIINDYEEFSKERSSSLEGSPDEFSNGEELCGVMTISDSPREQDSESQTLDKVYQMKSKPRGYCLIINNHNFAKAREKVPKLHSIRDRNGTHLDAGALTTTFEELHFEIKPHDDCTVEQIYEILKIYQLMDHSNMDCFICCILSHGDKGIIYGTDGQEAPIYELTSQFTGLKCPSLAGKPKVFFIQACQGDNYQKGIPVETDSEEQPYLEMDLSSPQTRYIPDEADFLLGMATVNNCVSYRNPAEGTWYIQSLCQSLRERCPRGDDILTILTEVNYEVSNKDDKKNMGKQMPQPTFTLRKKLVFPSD", "sequence of UniProt P32245 (whole entry, looked up)": "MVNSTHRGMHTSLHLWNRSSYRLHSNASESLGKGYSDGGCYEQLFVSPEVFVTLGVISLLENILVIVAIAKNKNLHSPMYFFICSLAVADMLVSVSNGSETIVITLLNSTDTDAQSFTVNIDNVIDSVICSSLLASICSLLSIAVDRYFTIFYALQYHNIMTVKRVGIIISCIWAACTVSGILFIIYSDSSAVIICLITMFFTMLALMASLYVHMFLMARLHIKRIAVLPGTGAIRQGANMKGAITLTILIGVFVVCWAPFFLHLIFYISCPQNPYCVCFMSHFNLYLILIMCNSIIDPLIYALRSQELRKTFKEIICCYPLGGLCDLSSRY", "sequence of UniProt Q16644 (whole entry, looked up)": "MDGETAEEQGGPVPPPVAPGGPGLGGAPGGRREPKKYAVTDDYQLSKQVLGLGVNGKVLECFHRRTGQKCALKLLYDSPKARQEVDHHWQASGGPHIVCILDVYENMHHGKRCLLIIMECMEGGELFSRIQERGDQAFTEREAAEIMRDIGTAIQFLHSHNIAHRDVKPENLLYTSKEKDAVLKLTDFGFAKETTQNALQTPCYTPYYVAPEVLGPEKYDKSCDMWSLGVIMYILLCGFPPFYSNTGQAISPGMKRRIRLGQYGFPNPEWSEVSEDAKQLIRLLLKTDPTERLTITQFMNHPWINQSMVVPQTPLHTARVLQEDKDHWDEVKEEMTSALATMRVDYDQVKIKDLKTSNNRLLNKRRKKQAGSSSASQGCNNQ"}
{"SMILES": "CC(C)(C)n1nc(-c2ccc(Cl)cc2)c2c(N)ncnc21", "target or system": "SRC", "conditions": "concentration not given", "endpoint": "bound fraction", "value": "92%"}
{"SMILES": "CCC[C@@H](C(=O)c1ccccc1)N1CCCC1", "target or system": "SLC6A3 (Homo sapiens, UniProt Q01959)", "assay": "DAT-mediated current recovery, electrophysiology", "system": "human DAT-expressing cells", "conditions": "added: 30 µM dopamine", "endpoint": "koff", "value": "0.028 s⁻¹"}
{"SMILES": "CC(C)CC(O)(CC(C)C)c1cn(C(=O)N2CCCC2)nn1", "target or system": "Isoamyl acetate-hydrolyzing esterase 1 homolog (Iah1, Mus musculus, UniProt Q9DB29)", "assay": "probe labelling, inhibitor, competitive ABPP-SILAC, measured: Iah1", "system": "mouse T cells", "conditions": "concentration not given, 4 h, protein level", "how to read": "baseline: treated over DMSO cells, lower = stronger inhibition", "endpoint": "median SILAC activity ratio", "value": 1.17}
{"SMILES": "COc1ccccc1C(C[N+](=O)[O-])c1c(-c2ccccc2)[nH]c2ccccc12 (stereo not drawn)", "target or system": "CNR1 (Homo sapiens, UniProt P21554, L165A)", "assay": "Gαi1-γ2 dissociation, BRET", "endpoint": "Emax", "value": "82.2 ± 2.11%"}
{"SMILES": "CC[C@H](C)[C@H](NC(=O)[C@H](CO)NC(=O)[C@H](Cc1ccc(O)cc1)NC(=O)[C@H](Cc1ccc(O)cc1)NC(=O)[C@H](CC(N)=O)NC(=O)CNC(=O)[C@H](CO)NC(=O)[C@H](Cc1ccc(O)cc1)NC(=O)[C@H](CO)NC(=O)[C@H](CO)NC(=O)[C@H](CC(N)=O)NC(=O)COCCOCCNC(=O)CN1CCN(CC(=O)O)CCN(CC(=O)O)CCN(CC(=O)O)CC1)C(=O)N[C@@H](CC(C)C)C(N)=O [copper-64 labelled]", "assay": "dynamic PET", "system": "mouse, tamoxifen-induced PDAC, blood", "conditions": "intravenous, 0.1 µg/mouse, 1.4 min", "endpoint": "tumour uptake", "value": "24.6 %ID/mL"}
{"SMILES": "CCOC(=O)C1=C(C)NC(=S)NC1c1ccc([N+](=O)[O-])o1 (racemic)", "target or system": "tmk", "assay": "enzyme activity, inhibitor, absorbance", "conditions": "0.01 µg/mL", "endpoint": "inhibition", "value": "33.9%"}
{"SMILES": "CCCCCn1cc(C(=O)c2cccc3ccccc23)c2ccccc21", "target or system": "CNR2 (Homo sapiens, UniProt P34972)", "assay": "cAMP inhibition, agonist, CAMYEL BRET biosensor", "conditions": "added: forskolin 10 µM", "how to read": "baseline: reference agonist at wild type", "endpoint": "Emax", "value": "79.6 ± 4%"}
{"SMILES": "CCOC(=O)C1=C(C)NC(=NN=C2C(=O)Nc3ccccc32)NC1c1ccc(F)cc1 (stereo not drawn)", "target or system": "tmk", "assay": "enzyme activity, inhibitor, absorbance", "conditions": "0.01 µg/mL", "endpoint": "inhibition", "value": "32.7%"}
{"SMILES": "CCCCCn1cc(C(=O)c2cccc3c2CC(C)(C)C3)c2ccccc21", "target or system": "CNR1", "assay": "GαoA activation, agonist, BRET", "how to read": "baseline: reference agonist", "endpoint": "Emax", "value": "64.3 ± 3.5%"}
{"SMILES": "CS(C)(=O)=Nc1ccc(-c2ccc(-c3nc4cc(O[C@@H]5CO[C@H]6[C@@H]5OC[C@H]6O)[nH]c4cc3F)cc2)cc1", "target or system": "CDC42BPA (Homo sapiens, UniProt Q5VT25)", "assay": "enzyme activity, inhibitor", "conditions": "10 µM", "endpoint": "inhibition", "value": "-18%"}
{"SMILES": "Cc1cn(C2CC(O)C(COP(=O)(O)O)O2)c(=O)[nH]c1=O (stereo not drawn)", "target or system": "tmk", "assay": "enzyme activity, inhibitor, absorbance", "conditions": "10 µg/mL", "endpoint": "inhibition", "value": "89%"}
{"SMILES": "CN(C)[C@H]1C[C@@]23CC[C@@]4(O2)C(=CC[C@]2(C)[C@@H](c5ccc6ccncc6c5)CC[C@H]24)C=C3[C@@H](O)[C@@H]1O", "target or system": "NEK9 (Homo sapiens, UniProt Q8TD19)", "assay": "ATP probe labelling, inhibitor, KiNativ profiling", "conditions": "1 µM", "endpoint": "inhibition", "value": "3.1%"}
{"SMILES": "CC(C)[C@H]1NC(=O)C[C@H]2/C=C/CCSSC[C@@H](NC1=O)C(=O)N[C@H](Cc1cccc3ccccc13)C(=O)NCC(=O)O2", "target or system": "MARK2 (Homo sapiens, UniProt Q7KZI7)", "assay": "enzyme activity, inhibitor", "conditions": "10 µM", "endpoint": "inhibition", "value": "-0.3%"}
{"SMILES": "Cc1ccc2c(C(C[N+](=O)[O-])c3cccs3)c(-c3ccccc3)[nH]c2c1 (stereo not drawn)", "target or system": "CNR1 (Homo sapiens, UniProt P21554, V171A)", "assay": "β-arrestin recruitment, agonist, luciferase", "endpoint": "Emax", "value": "63.7%"}
{"SMILES": "Cc1ccc(C(=O)Nc2ccc(CN3CCN(C)CC3)c(C(F)(F)F)c2)cc1C#Cc1cnc2cccnn12", "target or system": "SRC", "conditions": "concentration not given", "endpoint": "bound fraction", "value": "97%"}
{"SMILES": "CCCCCn1cc(C(=O)c2ccc3ccccc3c2)c2ccccc21", "target or system": "CNR1", "assay": "Gαi1 activation, agonist, BRET", "how to read": "baseline: reference agonist", "endpoint": "Emax", "value": "103 ± 9.9%"}
{"SMILES": "O=C1NC(=O)c2c1c1cc(F)c[n+]3c1c1c2c2cc(O)ccc2[n]1[Ru-4]312([N]=C=S)[S+]3CC[S+]1CC[S+]2CC3 (stereo not drawn)", "target or system": "MAPKAPK3 (Homo sapiens, UniProt Q16644)", "assay": "enzyme activity", "conditions": "100 nM, human enzyme, added: 10 µM ATP", "how to read": "baseline: untreated", "endpoint": "remaining activity", "value": "117%"}
{"SMILES": "O=C(NC1CCN(c2ncnc3[nH]cnc23)CC1)c1cccc(NS(=O)(=O)c2ccc(C(F)(F)F)cc2)c1", "target or system": "Replicase polyprotein 1ab, nsp14 (rep, Human coronavirus 229E, UniProt P0C6X1)", "assay": "enzyme activity", "conditions": "3.125 µM", "endpoint": "inhibition", "value": "36.7%"}
{"SMILES": "Nc1ccc(/C=C/C(=O)N2CCc3c(oc4c(-c5ccc(F)cc5)cc(-c5ccc(C(=O)N6CCC(F)(F)CC6)cn5)cc34)C2)cn1", "target or system": "MAPK8 (Homo sapiens, UniProt P45983)", "assay": "binding, competition with immobilised ligand", "conditions": "1 µM", "endpoint": "remaining binding", "value": "99%"}
{"SMILES": "COc1ccccc1-c1n[nH]c2nc(N[C@H]3CC[C@H](NS(=O)(=O)CC(C)C)CC3)ncc12", "assay": "bead binding, competition bead pull-down, measured: LINJ.35.1820", "system": "Leishmania donovani extract", "conditions": "10 µM", "how to read": "baseline: vehicle", "endpoint": "relative abundance", "value": 1.07}
{"SMILES": "CC(C)CC(C(=O)N1CC2(CC1C#N)C(=O)Nc1ccccc12)N(C)C(=O)c1cc2c(F)cc(F)c(F)c2[nH]1 (stereo not drawn)", "target or system": "Caspase-8 (CASP8, Homo sapiens, UniProt Q14790)", "endpoint": "Hill slope", "value": -0.37}
{"SMILES": "CCOC(=O)C1=C(C)NC(=NN=C2C(=O)Nc3ccc(C)cc32)NC1c1ccc(F)cc1 (stereo not drawn)", "target or system": "tmk", "assay": "enzyme activity, inhibitor, absorbance", "conditions": "0.1 µg/mL", "endpoint": "inhibition", "value": "52.7%"}
{"SMILES": "CC(C)(C)C(=O)OCOP(=O)(OCOC(=O)C(C)(C)C)C1CCCN(O)C1=O (stereo not drawn)", "target or system": "PC-3", "endpoint": "log LC50", "value": "> -4 log M"}
{"SMILES": "CNCCc1c[nH]c2ccc(O)cc12", "target or system": "NMT from Rhinella marina", "conditions": "10 min, 30 °C", "endpoint": "Km", "value": "60.8 ± 15.8 µM"}
{"SMILES": "CN1C(=O)C(=Cc2ccc(I)o2)C(=O)NC1=S", "target or system": "USP5 (Homo sapiens, UniProt P45974)", "assay": "enzyme activity, inhibitor", "conditions": "17 µM", "endpoint": "inhibition", "value": "34%"}
{"SMILES": "COc1ccccc1-c1n[nH]c2nc(NC3CCN(C(=O)Cc4ccc(F)cc4F)CC3)ncc12", "assay": "bead binding, competition bead pull-down, measured: LINJ.35.3110", "system": "Leishmania donovani extract", "conditions": "10 µM", "how to read": "baseline: vehicle", "endpoint": "relative abundance", "value": 0.76}
{"SMILES": "CCCCCn1cc(C(=O)c2ccc3c(c2)CC(C)(C)C3)c2ccccc21", "target or system": "CNR1 (Homo sapiens, UniProt P21554, H178A)", "assay": "Gαi1 engagement, agonist, BRET", "how to read": "baseline: reference agonist at wild-type CB1", "endpoint": "Emax", "value": "19.1 ± 7.3%"}
{"SMILES": "Cc1sc2c(c1C)C(c1ccc(Cl)cc1)=NC(CC(=O)OC(C)(C)C)c1nnc(C)n1-2 (stereo not drawn)", "target or system": "MC4R (Homo sapiens, UniProt P32245)", "assay": "ligand displacement, radioligand", "conditions": "1 µM", "endpoint": "inhibition", "value": "0%"}
{"SMILES": "O=[N+]([O-])CC(c1ccco1)c1c(-c2ccccc2)[nH]c2ccccc12 (stereo not drawn)", "target or system": "Cannabinoid receptor 1, with Gi1 (CNR1, Homo sapiens, UniProt P21554)", "assay": "Gi1 dissociation, agonist, BRET", "endpoint": "Emax", "value": "69.5 ± 5.42%"}
{"SMILES": "O=C1NC2(CC2)COc2ncc(F)cc2[C@H]2COCCN2c2ccn3ncc1c3n2", "system": "Sprague-Dawley rat, male, serum", "conditions": "oral, 10 mg/kg/day, end of treatment, 4-week subacute toxicity", "endpoint": "serum total bilirubin", "value": "0.7 ± 0.3 µmol/L"}
{"note": "Repeated from above:"}
{"SMILES": "CC(C)(C)C(=O)OCOP(=O)(OCOC(=O)C(C)(C)C)C1CCCN(O)C1=O (stereo not drawn)", "target or system": "PC-3", "endpoint": "log LC50", "value": "> -4 log M"}
{"SMILES": "CCOC(=O)C1=C(C)NC(=NN=C2C(=O)Nc3ccccc32)NC1c1ccc(F)cc1 (stereo not drawn)", "target or system": "tmk", "assay": "enzyme activity, inhibitor, absorbance", "conditions": "0.01 µg/mL", "endpoint": "inhibition", "value": "32.7%"}
{"SMILES": "O=C(NC1CCN(c2ncnc3[nH]cnc23)CC1)c1cccc(NS(=O)(=O)c2ccc(C(F)(F)F)cc2)c1", "target or system": "Replicase polyprotein 1ab, nsp14 (rep, Human coronavirus 229E, UniProt P0C6X1)", "assay": "enzyme activity", "conditions": "3.125 µM", "endpoint": "inhibition", "value": "36.7%"}
{"SMILES": "Cc1sc2c(c1C)C(c1ccc(Cl)cc1)=NC(CC(=O)OC(C)(C)C)c1nnc(C)n1-2 (stereo not drawn)", "target or system": "MC4R (Homo sapiens, UniProt P32245)", "assay": "ligand displacement, radioligand", "conditions": "1 µM", "endpoint": "inhibition", "value": "0%"}
